Results from different studies.
Every numbered part comes from another study and shows a few of its results, in no order. Changes are numbered by the printed parent chain.

Study 1 — method: protein binding microarray; molecule type: double-stranded DNA, one strand shown; sample: in vitro; concentration: not given; relative to: not given; reading: higher = stronger binding; quantity: E-score
Target: Histone acetyltransferase KAT6A, both winged helices, GST fusion (KAT6A, Homo sapiens, UniProt Q92794, residues 1-181)
Setting: 8-mer, flanks averaged, mean of 2 arrays, mostly near background
Target sequence (chain): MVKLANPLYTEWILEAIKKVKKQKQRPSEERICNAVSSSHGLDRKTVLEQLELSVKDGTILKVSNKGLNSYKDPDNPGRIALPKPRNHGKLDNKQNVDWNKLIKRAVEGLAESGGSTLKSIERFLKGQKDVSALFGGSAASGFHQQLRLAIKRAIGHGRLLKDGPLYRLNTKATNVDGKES
Strand = AACCCGGT; result = 0.222
Strand = CAATACTG; result = -0.135
Strand = ATTAAGCC; result = 0.0205
Strand = CATGCATA; result = -0.0475
Strand = AGATCACT; result = -0.125
Strand = CAAGCATA; result = -0.185
Strand = CGTACGCC; result = 0.26
Strand = AGCGAGAC; result = 0.0793
Strand = ACCTGGGA; result = -0.194
Strand = ACTTGAAA; result = -0.173
Strand = CCTGTGAA; result = -0.0941
Strand = ATATAGTC; result = -0.0631
Strand = ATAATGAA; result = -0.0857
Strand = AGGATTTC; result = -0.13
Strand = ACGAATCC; result = -0.0248
Strand = CGTCTACA; result = 0.0799
Strand = TATTACAA; result = -0.0209
Strand = AGACTAAA; result = -0.0499
Strand = ACCTCTAG; result = -0.0956

Study 2 — method: DHFR PCA, deep sequencing; sample: yeast; together with: (+)-ABA 0.39 µM; relative to: wild-type fitted maximum; reading: higher = stronger binding; quantity: relative binding score
Target: ABI1, truncated, D143A, DHFR fusion (Arabidopsis thaliana)
Setting: methotrexate growth selection, single substitutions
Parent: PYL1, truncated, DHFR fusion (Arabidopsis thaliana); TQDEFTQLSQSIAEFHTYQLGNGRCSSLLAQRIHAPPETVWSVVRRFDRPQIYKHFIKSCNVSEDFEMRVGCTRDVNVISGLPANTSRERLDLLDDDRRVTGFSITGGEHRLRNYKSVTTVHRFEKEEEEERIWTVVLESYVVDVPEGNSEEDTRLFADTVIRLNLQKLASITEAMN
Substitution = I12C; result = 1.49%
Substitution = G71A; result = -4.3%
Substitution = Q51F; result = -10%
Substitution = E14W; result = 2.33%
Substitution = E174C; result = -13.2%
Substitution = W41F; result = -8.85%
Substitution = D144I; result = -19%
Substitution = S140K; result = -5.51%
Substitution = S27E; result = -6.93%
Substitution = S80H; result = 30.5%
Substitution = V118E; result = 2.63%
Substitution = G81A; result = 8.78%
Substitution = R88P; result = -4.99%
Substitution = Y18N; result = -6.25%
Substitution = H110D; result = 45.1%
Substitution = V44C; result = -1.69%
Substitution = N22E; result = 62.9%
Substitution = G107D; result = 32.1%
Substitution = I57G; result = -6.38%
Substitution = E139W; result = 20.1%
Substitution = R132F; result = 26.6%
Substitution = S11P; result = 55.3%

Study 3 — target: CCNA1, cyclin fold, Cln2 fusion (human); method: yeast growth competition, sequencing; sample: yeast; setting: weak parent motif; relative to: not given; reading: higher = stronger binding; quantity: normalised enrichment score
Parent: BRCA2 docking peptide (human); PSIKRNLLNEFDR; partner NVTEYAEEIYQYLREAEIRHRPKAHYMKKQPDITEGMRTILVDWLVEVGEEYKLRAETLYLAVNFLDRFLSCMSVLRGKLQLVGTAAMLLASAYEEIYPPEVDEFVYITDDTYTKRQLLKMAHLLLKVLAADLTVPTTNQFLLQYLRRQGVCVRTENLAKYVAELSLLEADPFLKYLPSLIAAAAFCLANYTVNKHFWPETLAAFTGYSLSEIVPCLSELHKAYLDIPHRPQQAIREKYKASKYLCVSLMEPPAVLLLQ
Substitution = L7F; result = 0.293
Substitution = R13Q; result = 0.539
Substitution = F11I; result = 0.928
Substitution = L7A; result = 0.048
Substitution = D12I; result = 0.103
Substitution = S2A; result = 0.419
Substitution = E10S; result = 0.345
Substitution = R5Q; result = 0.53
Substitution = F11W; result = 0.655
Substitution = S2Y; result = 0.28
Substitution = I3G; result = 0.527
Substitution = F11P; result = 0.321
Substitution = R13M; result = 0.477
Substitution = K4I; result = -0.0469
Substitution = I3K; result = 0.579
Substitution = R5K F11L; result = -0.291
Substitution = R5C; result = 0.427
Substitution = F11V; result = 0.378
Substitution = R13W; result = 0.945
Substitution = F11E; result = 0.0698
Substitution = R13N; result = 0.617
Substitution = D12K; result = 0.274
Substitution = L8T; result = 0.421
Substitution = L8W; result = 0.144
Substitution = N9R; result = 0.646

Study 4 — method: RNAcompete; molecule type: RNA; sample: in vitro; concentration: 20 nM; setting: 7-mer, probes averaged, single round; relative to: mean of 7-mers; reading: higher = stronger binding; quantity: 7-mer Z-score
Target: PABPC1L2, full length, GST fusion (mouse, UniProt A0ABA7IW68)
Construct (chain): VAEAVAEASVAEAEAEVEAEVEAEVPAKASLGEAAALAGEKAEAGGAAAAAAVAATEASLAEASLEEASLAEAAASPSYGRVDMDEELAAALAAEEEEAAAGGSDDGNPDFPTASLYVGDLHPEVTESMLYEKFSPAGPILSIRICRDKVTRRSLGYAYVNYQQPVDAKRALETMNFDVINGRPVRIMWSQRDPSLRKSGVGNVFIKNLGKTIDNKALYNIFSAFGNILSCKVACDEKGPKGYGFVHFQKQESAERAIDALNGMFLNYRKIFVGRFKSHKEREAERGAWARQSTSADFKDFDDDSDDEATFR
Strand = CUGUUGU; result = -0.374
Strand = CUGUCCG; result = -0.398
Strand = UUCGUAG; result = -0.382
Strand = UUUUCCG; result = -0.42
Strand = ACCCAUU; result = -0.122
Strand = UAACAGC; result = -0.159
Strand = CUUUUUC; result = -0.215
Strand = UACGGAU; result = 0.0297
Strand = CUUGCUA; result = -0.273
Strand = UGGAUUU; result = -0.184
Strand = AAAUUCU; result = 0.423
Strand = CCCCUUG; result = -0.46
Strand = GCGUCAC; result = -0.124
Strand = GGAUGCU; result = -0.0192
Strand = GCCUUAU; result = -0.277
Strand = UCAAGAU; result = -0.0971
Strand = CCUCACC; result = -0.347
Strand = GCGUUGA; result = -0.117
Strand = AGCUGUA; result = 0.00798
Strand = CCCUGGG; result = -0.416
Strand = CUUGCCA; result = -0.199
Strand = GCUUCAU; result = -0.315
Strand = CAAUUGC; result = -0.155
Strand = CCCAAAC; result = 0.0497
Strand = AAUCAUU; result = -0.00833

Study 5 — method: universal PBM; molecule type: double-stranded DNA, one strand shown; sample: in vitro; concentration: not given; reading: higher = stronger binding; quantity: E-score
Target: Sal-like protein 4, full length isoform B (SALL4, Homo sapiens, UniProt Q9UJQ4-2, residues 1-616)
Setting: 8-mer, flanks averaged, mean of replicates
Residues (chain): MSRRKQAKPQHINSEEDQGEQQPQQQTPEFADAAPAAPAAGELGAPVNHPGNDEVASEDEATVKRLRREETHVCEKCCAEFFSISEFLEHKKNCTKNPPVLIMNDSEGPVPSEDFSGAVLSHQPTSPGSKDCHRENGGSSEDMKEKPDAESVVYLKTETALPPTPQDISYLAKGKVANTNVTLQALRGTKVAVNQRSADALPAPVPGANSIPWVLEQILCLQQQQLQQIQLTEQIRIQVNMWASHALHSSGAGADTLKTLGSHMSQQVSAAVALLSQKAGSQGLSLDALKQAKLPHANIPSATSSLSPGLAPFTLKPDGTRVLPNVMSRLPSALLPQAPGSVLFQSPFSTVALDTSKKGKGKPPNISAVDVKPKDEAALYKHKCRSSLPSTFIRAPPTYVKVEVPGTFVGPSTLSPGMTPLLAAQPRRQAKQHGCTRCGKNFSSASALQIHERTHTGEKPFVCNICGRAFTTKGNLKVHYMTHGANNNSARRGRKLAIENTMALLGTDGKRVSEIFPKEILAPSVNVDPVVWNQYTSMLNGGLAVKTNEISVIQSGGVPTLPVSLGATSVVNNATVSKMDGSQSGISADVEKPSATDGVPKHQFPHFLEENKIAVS
Strand = GATCCAGA; result = -0.0877
Strand = GCACAACC; result = -0.279
Strand = ACCACTCA; result = -0.0254
Strand = CGAGAGGC; result = -0.339
Strand = AGCGCCCA; result = -0.289
Strand = CACTTTTC; result = 0.124
Strand = CATATAGC; result = 0.185
Strand = AGTGAGCA; result = -0.0578
Strand = ATAACCTA; result = 0.279
Strand = GAGCGTGA; result = -0.183
Strand = CCTCCCCC; result = -0.179
Strand = AGTAAGGG; result = -0.0689
Strand = AAGATTGT; result = 0.157
Strand = GCATTGGA; result = 0.0764
Strand = ATGGATGC; result = 0.0726
Strand = AGTGCCTC; result = -0.217
Strand = AGGTCGTG; result = -0.163
Strand = ACCCCTGG; result = -0.351
Strand = CACCCGTA; result = -0.121
Strand = TGACGGAA; result = -0.0147
Strand = CACTACAA; result = 0.114
Strand = ATTTCCAC; result = 0.195
Strand = ATGCGATG; result = -0.078
Strand = CAACAATC; result = 0.0986

Study 6 — method: RNA Bind-n-Seq; molecule type: RNA; sample: in vitro; concentration: 100 nM; relative to: input RNA pool; reading: higher = stronger binding; quantity: bound/input enrichment
Target: RING finger protein unkempt homolog, zinc fingers 1-6, SBP tag (UNK, Homo sapiens, UniProt Q9C0B0, residues 30-357)
Sequence of UniProt Q9C0B0 (30-357, looked up): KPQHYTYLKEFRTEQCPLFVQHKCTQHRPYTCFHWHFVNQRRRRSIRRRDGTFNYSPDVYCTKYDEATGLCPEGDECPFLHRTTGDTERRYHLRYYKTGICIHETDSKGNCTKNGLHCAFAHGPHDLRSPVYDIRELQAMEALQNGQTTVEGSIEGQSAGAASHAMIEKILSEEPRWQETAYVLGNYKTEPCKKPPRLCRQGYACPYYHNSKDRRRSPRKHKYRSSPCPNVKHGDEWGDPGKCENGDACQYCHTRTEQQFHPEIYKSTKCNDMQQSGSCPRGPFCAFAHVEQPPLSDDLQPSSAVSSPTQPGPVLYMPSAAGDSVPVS
Setting: RNA with constant flanks, vertebrate orthologous sites, ends assumed
Strand = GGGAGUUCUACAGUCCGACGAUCGAAGAUGGUGGUUGUACAUUAUUCAUUUAGAAAAUAUAAAAAUUCAUUUUGUUUUGAAGCUAGGCAUUAAACUGGAAUAGCAGUUUUACCCCUGAGAAUGGGGCCCUUCCCUUGACAUUCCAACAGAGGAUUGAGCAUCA; result = 3.75 ratio
Strand = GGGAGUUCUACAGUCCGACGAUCUUACACUUAAACUGGUAUUUUCAAACAAUAGGAAACUAUUUUUUCUUUUUUUACAGUUUAGCGUGUAUCUGGCUUGUACAUGGAAGACUAAAAUGUUUGAUUUGCUAAAUGUGGUCUUUGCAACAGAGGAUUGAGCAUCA; result = 0.293 ratio
Strand = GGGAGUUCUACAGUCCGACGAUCUGGUUUUAAAAAAGGAGCUAUUAGGGCAAAAAAUGAUAAAUGUCACAUGUGCCAAGCUAACUGUUCGUCACUGAAAGCUCUAGAAGGUUCCAGGCUGGGGAUGUAGUUCAGUAGUGCAAUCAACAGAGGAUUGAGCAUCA; result = 0.568 ratio
Strand = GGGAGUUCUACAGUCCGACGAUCUUCAGGCACAACUGACUGGUUCACAGCAUUCCUUACAUAGCUAUCUAUCAAAUGCAAGUGUCGUUAAUUUUCAGGAAACUAGCAGGCAGUCAUCCUUAUCCUGUAGCCCAAUUGGAGAUUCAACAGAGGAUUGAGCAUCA; result = 1.53 ratio
Strand = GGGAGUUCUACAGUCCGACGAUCAAGGGCUUCCAACAGGCAAAUUCAGGGAGAGAUAGGCUUCAGGGAAUAUAAACUUAAUAGUAGUGAUCAUGAAGUAUAAAUUUGAUAUAAUUGAAUUAUUUGUGAGGGAUGAUGAUAAAACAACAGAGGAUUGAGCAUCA; result = 1.09 ratio
Strand = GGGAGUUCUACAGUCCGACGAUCGUCAUCUGACUGGAUGAAGACUGUUCCAAGUUACAACCAAACAAGUAGCUCCGUGGACUUUAGGAAUUACAUGAUGAGAGAUGAGAAUCUGGAACCACUGCCCAAAAACUGGGAAAUGGCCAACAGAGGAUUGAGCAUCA; result = 0.491 ratio
Strand = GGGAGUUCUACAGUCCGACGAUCAUUUAGAAUGUAUUUAGUUAUAGUUAAUGAUCUCAUUCCCGUGUUCCUUUUUCAUUAACGUAGCUUUAAUAGUAUGAAUAAAUAGGAGGAUUGCGCCAGUAGGCAUUGUUACUGAAUCGGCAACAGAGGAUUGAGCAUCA; result = 1.04 ratio
Strand = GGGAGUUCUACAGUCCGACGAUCCUUUUGUGUGAAAUAUGUCUCUCCAGAGAAGUAUCACCUUAUAAAUAUUAUCAAAUAAUUUAGCUCAAGUCUUCUUAGGUAUUAAAUUAUGUGUCAAGCAUUUAAGGUGACUUUGAGAUGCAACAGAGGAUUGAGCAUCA; result = 0.293 ratio
Strand = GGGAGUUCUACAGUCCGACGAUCCAUGCACAUGCCGCUGUCACCAAAAGCAAACACCUUUUUCAAAUACAUUAAUAGCAUUUUUAAUAUUCCCUCUUUCCUUCUAAUAGUUUUUAGCAUUAGAGGAACAGAAAUCUUGAUUCUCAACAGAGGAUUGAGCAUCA; result = 3.5 ratio
Strand = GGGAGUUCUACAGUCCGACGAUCCAUCUCUCAUUUUAUAUAUCCAAAAAUGGCUUUGAAUUUUUAAAGAAUUGCUAUUUUAAUUAGUUUUGCCCUCAUGAGGUAUUAUUAUAGUUUACCACAAACAGAUAUCUGUCUGAAUUACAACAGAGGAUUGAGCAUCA; result = 1.08 ratio
Strand = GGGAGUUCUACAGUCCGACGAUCCUACUAUAAACAACUCAGGGCAGUAUUCUCGAUACCCUUACAGUAACCUAAAUCAGGGAUUAGUUAACAAUACAGGGAUGAAUCAAAAUUUAGGCCUUACAAAUAAUACUCCAAUGAAUCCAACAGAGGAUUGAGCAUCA; result = 1.72 ratio
